Results of several laboratories.
Protocols differ between the studies behind these lines. Values joined by “and” are separate records of one study, mostly repeats; a detail may differ. ± marks the error that the study gave.

SMILES | assay | system | conditions | how to read | measurement | result
CCCC[C@H]1C(=O)N(C)[C@@H](CCCC)C(=O)N[C@@H](CCCNC(=O)CN2CCN(CC(=O)O)CCN(CC(=O)O)CCN(CC(=O)O)CC2)C(=O)N[C@H](C(=O)NCC(N)=O)CSCC(=O)N[C@@H](Cc2ccc(O)cc2)C(=O)N(C)[C@@H](C)C(=O)N[C@@H](CC(N)=O)C(=O)N2CCC[C@H]2C(=O)N[C@@H](Cc2c[nH]cn2)C(=O)N[C@@H](CC(C)C)C(=O)N(C)CC(=O)N[C@@H](Cc2c[nH]c3ccccc23)C(=O)N[C@@H](CO)C(=O)N[C@@H](Cc2c[nH]c3ccccc23)C(=O)N1C [gallium-68 labelled] |  | NOD/SCID mice with CHO-hPD-L1 xenograft, bone | 120 min post injection |  | tissue uptake | 2.82 ± 1.37 %ID/g
Cc1ccccc1-c1ccc(-c2nc(-c3ccc(CN(C)CCCC(=O)O)c([18F])c3)no2)cc1C(F)(F)F |  | rat, bone | 2 h |  | tracer uptake | 0.08 %ID/g
COC(=O)[C@H]1[C@@H](c2ccc(Cl)cc2)C[C@@H]2CC[C@H]1N2CCCc1ccc2cc3ccccc3cc2c1 | fluorometric titration |  | 1 µM, 10% DMSO |  | pKa | 6.9
CCN(C)C(=O)Oc1ccccc1/C=C1\Cc2cc(OC)c(OC)cc2C1=O |  | male Sprague-Dawley rat, plasma | oral, 100 mg/kg, single dose |  | AUC(0-t) | 2860 ng·h/mL
CN[C@H](CC(C)C)C(=O)N[C@H]1C(=O)N[C@@H](CC(N)=O)C(=O)N[C@H]2CN[C@H]3C(=O)N[C@H](C(=O)N[C@H](C(=O)NCCCNC(=N)N)c4cc(O)cc(O)c4-c4cc3ccc4O)[C@H](O)c3ccc(c(Cl)c3)Oc3cc2cc(c3O[C@@H]2O[C@H](CO)[C@@H](O)[C@H](O)[C@H]2O[C@H]2C[C@](C)(NCc3ccc(-c4ccc(Cl)cc4)cc3)[C@H](O)[C@H](C)O2)Oc2ccc(cc2Cl)[C@H]1O |  | mouse |  |  | MTD | ≥ 50 mg/kg
CC[C@H](C)[C@H](NC(=O)[C@H](CCCCN)NC(=O)CNC(=O)[C@H](CC(C)C)NC(=O)[C@H](Cc1ccccc1)NC(=O)[C@H](CCCCN)NC(=O)[C@H](CO)NC(=O)[C@H](Cc1ccccc1)NC(=O)[C@H](Cc1c[nH]c2ccccc12)NC(=O)[C@H](CCC(N)=O)NC(=O)[C@@H](NC(=O)[C@H](Cc1ccccc1)NC(=O)CCCCCNC(=O)CN1CCN(CC(=O)O)CCN(CC(=O)O)CCN(CC(=O)O)CC1)C(C)C)C(=O)N[C@@H](CCC(=O)O)C(=O)N1CCC[C@H]1C(=O)N[C@@H](CC(=O)O)C(=O)N[C@H](C(=O)N[C@@H](CO)C(=O)N[C@@H](CCC(N)=O)C(=O)N[C@H](C(=O)N[C@@H](CCC(N)=O)C(=O)N[C@@H](CC(=O)O)C(=O)N1CCC[C@H]1C(=O)N[C@@H](CC(N)=O)C(=O)N[C@@H](CC(=O)O)C(=O)N[C@@H](CCC(N)=O)C(=O)N[C@@H](Cc1ccc(O)cc1)C(=O)N[C@@H](CCC(=O)O)C(=O)N1CCC[C@H]1C(=O)N[C@@H](Cc1ccccc1)C(=O)O)C(C)C)C(C)C [copper-64 labelled] |  | C57BL/6 mice, spleen | vehicle, intratracheal instillation |  | tissue uptake | 0.77 ± 0.3 %ID/g
Nc1nonc1-c1nnc2c(n1)-c1ccccc1C2=O |  | mouse | intraperitoneal, 20 mg/kg, 3 weeks, 5 times per week |  | body weight and blood counts | no effect
CC[C@H](C)[C@H](NC(=O)[C@H](Cc1ccc(O)cc1)NC(=O)[C@@H](NC(=O)[C@H](CCCNC(=N)N)NC(=O)[C@@H](N)CC(=O)O)C(C)C)C(=O)N[C@@H](Cc1c[nH]cn1)C(=O)N1CCC[C@H]1C(=O)O |  | Beagle dog, plasma | sc, 10 mg/kg/day, day 27 | relative to: day 0 | AUC reduction | 15%
CC[C@H](C)[C@H](NC(=O)[C@H](C)NC(=O)[C@H](C)NC(=O)[C@H](CCC(N)=O)NC(=O)CNC(=O)[C@H](CC(C)C)NC(=O)[C@H](Cc1c[nH]cn1)NC(=O)[C@H](CCCCN)NC(=O)[C@H](C)NC(=O)CNC(=O)[C@H](CCCCN)NC(=O)[C@H](CCCNC(=N)N)NC(=O)[C@H](CC(C)C)NC(=O)[C@H](Cc1c[nH]c2ccccc12)NC(=O)[C@H](CCCCN)NC(=O)[C@H](CCCCN)NC(=O)[C@H](Cc1c[nH]c2ccccc12)NC(=O)CN)C(=O)N[C@@H](CCCCN)C(=O)NCC(=O)N[C@@H](CC(C)C)C(=O)N[C@@H](C)C(=O)N[C@@H](CO)C(=O)O |  | zebrafish embryos 28 hpf, E3 medium | 24 h |  | chronic toxic concentration | 5 µM
O=C1NC2(CC2)COc2ncc(F)cc2[C@H]2COCCN2c2ccn3ncc1c3n2 |  | Sprague-Dawley rat, female | oral, 2.5 mg/kg/day, end of treatment, 4-week repeated-dose toxicity |  | body weight | 342 ± 24.5 g
CC(=O)NCCCC[C@@H]1NC(=O)[C@H](Cc2c[nH]c3c(C)cccc23)NC(=O)[C@H]([C@@H](C)O)NC(=O)[C@H](CC(N)=O)NC(=O)[C@@H](NC(C)=O)C(C)(C)SSC(C)(C)[C@@H](C(=O)N[C@@H](Cc2ccc(OCCN)cc2)C(=O)N[C@@H](Cc2ccc3ccccc3c2)C(=O)NC2(C(=O)N[C@@H](CCC(=O)O)C(=O)N[C@@H](CC(N)=O)C(=O)N[C@@H](Cc3cccnc3)C(=O)N(C)CC(N)=O)CCOCC2)NC1=O |  | dog, blood | 0.13 µM, 2 h |  | blood to plasma ratio | 0.83 ± 0.06
COc1cnc2cccc(N3CCc4c(cc(Cn5ccnc5)cc4-c4cn(C)nc4C(F)(F)F)C3=O)c2c1 |  | BALB/c nude mice, MV4-11 xenograft | intraperitoneal, 100 mg/kg, day 28 |  | body weight | 23.5 g and 23.6 g and 24.4 g and 23.2 g and 23.8 g
CN[C@H](CC(C)C)C(=O)N[C@H]1C(=O)N[C@@H](CC(N)=O)C(=O)N[C@H]2C(=O)N[C@H]3C(=O)N[C@H](C(=O)N[C@H](C(=O)O)c4cc(O)cc(O)c4-c4cc3ccc4O)[C@H](O)c3ccc(c(Cl)c3)Oc3cc2cc(c3O[C@@H]2O[C@H](CO)[C@@H](O)[C@H](O)[C@H]2O[C@H]2C[C@](C)(NCc3ccc(-c4ccc(Cl)cc4)cc3)[C@H](O)[C@H](C)O2)Oc2ccc(cc2Cl)[C@H]1O |  | mouse, plasma | intravenous, 10 mg/kg |  | clearance | 1.23 mL/min/kg
CC(CCC(=O)NCC(=O)O)C1CCC2C3C(O)CC4CC(OC5OC(C(=O)O)C(O)C(O)C5O)CCC4(C)C3CCC12C (centres unmarked) |  | human women | dose not given, SLCO1B1 *14/*35 |  | plasma concentration | 6.28 ng/mL
CC(C)=CCC/C(C)=C/CCn1cc(CC(P(=O)(O)O)P(=O)(O)O)nn1 |  | CD-1 mouse, plasma | intravenous, 0.5 mg/kg, single dose |  | C0 | 1380 ng/mL
CC[C@H](C)[C@H](NC(=O)[C@H](CC(C)C)NC(=O)CNC(=O)[C@H](Cc1c[nH]cn1)NC(=O)[C@@H](NC(=O)[C@H](Cc1c[nH]c2ccccc12)NC(=O)[C@H](CCCCN)NC(=O)CNC(=O)[C@@H](NC(=O)[C@H](Cc1c[nH]cn1)NC(=O)[C@H](Cc1c[nH]cn1)NC(=O)[C@@H](NC(=O)CNC(=O)[C@H](Cc1c[nH]cn1)NC(=O)[C@H](Cc1ccccc1)NC(=O)[C@H](CC(C)C)NC(=O)[C@H](CC(C)C)NC(=O)CNC(=O)[C@H](CC(C)C)NC(=O)[C@@H](N)Cc1ccccc1)C(C)C)C(C)C)[C@@H](C)CC)C(=O)N[C@@H](Cc1c[nH]cn1)C(=O)NCC(=O)N[C@@H](Cc1c[nH]cn1)C(=O)N[C@@H](Cc1c[nH]cn1)C(N)=O |  | zebrafish embryos 28 hpf, E3 medium | 24 h |  | chronic toxic concentration | 5 µM
CCCCCCCCCCCCCCCC(=O)N[C@@H](CCC(=O)NCCOCCOCCC(=O)NCCOCCOCCC(=O)NCCCC[C@H](NC(=O)[C@H](CC(=O)O)NC(=O)[C@H](CC(C)C)NC(=O)[C@H](Cc1ccc(O)cc1)NC(=O)[C@H](CCCCN)NC(=O)[C@H](CO)NC(=O)[C@H](Cc1ccc(O)cc1)NC(=O)[C@H](CC(=O)O)NC(=O)[C@H](CO)NC(=O)[C@@H](NC(=O)[C@H](Cc1ccccc1)NC(=O)[C@@H](NC(=O)CNC(=O)[C@H](CCC(N)=O)NC(=O)[C@@H](CO)NC(=O)[C@@H](N)Cc1c[nH]cn1)[C@@H](C)O)[C@@H](C)O)C(=O)N[C@@H](CCCNC(=N)N)C(=O)N[C@@H](CCCNC(=N)N)C(=O)N[C@@H](C)C(=O)N[C@@H](CCC(N)=O)C(=O)N[C@@H](CC(=O)O)C(=O)N[C@@H](Cc1ccccc1)C(=O)N[C@H](C(=O)N[C@@H](CCC(N)=O)C(=O)N[C@@H](Cc1c[nH]c2ccccc12)C(=O)N[C@@H](CC(C)C)C(=O)N[C@@H](CC(C)C)C(=O)N[C@@H](CC(N)=O)C(=O)N[C@H](C(=O)NCC(=O)NCC(=O)N1CCC[C@H]1C(=O)N[C@@H](CO)C(=O)N[C@@H](CO)C(=O)NCC(=O)N[C@@H](C)C(=O)N1CCC[C@H]1C(=O)N1CCC[C@H]1C(=O)N1CCC[C@H]1C(=O)N[C@@H](CO)C(N)=O)[C@@H](C)O)C(C)C)C(=O)O |  | Sprague-Dawley rat, female | subcutaneous, 500 µg/kg once daily, 14 days |  | total cholesterol | 0.61 ± 0.18 mmol/L

Repeated from above:
SMILES | assay | system | conditions | how to read | measurement | result
CC(=O)NCCCC[C@@H]1NC(=O)[C@H](Cc2c[nH]c3c(C)cccc23)NC(=O)[C@H]([C@@H](C)O)NC(=O)[C@H](CC(N)=O)NC(=O)[C@@H](NC(C)=O)C(C)(C)SSC(C)(C)[C@@H](C(=O)N[C@@H](Cc2ccc(OCCN)cc2)C(=O)N[C@@H](Cc2ccc3ccccc3c2)C(=O)NC2(C(=O)N[C@@H](CCC(=O)O)C(=O)N[C@@H](CC(N)=O)C(=O)N[C@@H](Cc3cccnc3)C(=O)N(C)CC(N)=O)CCOCC2)NC1=O |  | dog, blood | 0.13 µM, 2 h |  | blood to plasma ratio | 0.83 ± 0.06
COc1cnc2cccc(N3CCc4c(cc(Cn5ccnc5)cc4-c4cn(C)nc4C(F)(F)F)C3=O)c2c1 |  | BALB/c nude mice, MV4-11 xenograft | intraperitoneal, 100 mg/kg, day 28 |  | body weight | 23.5 g and 23.6 g and 24.4 g and 23.2 g and 23.8 g
